Experimental data pooled from the literature.
A part holds a random share of what one study measured. Changes are numbered by the printed parent chain.

Set 1
Substance: PhoQ, residues 284 288 289 292 302 303 SSTLLI
Technique: Sort-seq
Item: YFP reporter
Sample: E. coli
Setting: PhoQ-PhoP variant library
Together with: 10 µM Mg2+
Reference: high Mg2+ state
Direction: higher = stronger signaling
The fold induction was 0.994 (PhoP, residues 12 14 15 18 19 HHYTI (Escherichia coli, UniProt P23836)).
PhoP, residues 12 14 15 18 19 SFCSL (Escherichia coli, UniProt P23836) — fold induction: 28.4.
PhoP, residues 12 14 15 18 19 AYFRS (Escherichia coli, UniProt P23836) — fold induction: 2.01.

Set 2
Target: CCNA1, cyclin fold, Cln2 fusion (human)
Technique: yeast growth competition, sequencing
Sample: yeast
Setting: weak parent motif
Reference: not given
Direction: higher = stronger binding
Starting sequence: RBL1 docking peptide (human); GSAKRRLFGEDPP; partner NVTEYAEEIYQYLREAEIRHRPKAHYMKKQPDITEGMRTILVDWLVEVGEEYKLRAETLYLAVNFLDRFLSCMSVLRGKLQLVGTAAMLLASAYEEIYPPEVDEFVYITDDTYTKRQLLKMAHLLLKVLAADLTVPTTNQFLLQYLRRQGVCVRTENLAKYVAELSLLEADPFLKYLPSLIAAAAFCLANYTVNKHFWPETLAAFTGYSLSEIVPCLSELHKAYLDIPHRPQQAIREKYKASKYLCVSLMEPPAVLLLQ
`GSAKRRLFGEEPP [D11E]`: “normalised enrichment score” 0.652.
Under “normalised enrichment score”, `GSAKMRLFGEDPP [R5M]` is recorded as 0.324.
For `GSAKRRLFGGDPP [E10G]`, “normalised enrichment score” read 0.128.
For `ESAKRRLFGEDPP [G1E]`, “normalised enrichment score” read 0.36.
Under “normalised enrichment score”, `GSAKRRLQGEDPP [F8Q]` is recorded as 0.232.
For `GSANRRLFGEDPP [K4N]`, “normalised enrichment score” read 0.216.
`GSAKRFLFGEDPP [R6F]`: “normalised enrichment score” 0.333.

Set 3
Target: Histone acetyltransferase KAT6A, both winged helices, GST fusion (KAT6A, Homo sapiens, UniProt Q92794, residues 1-181)
Technique: protein binding microarray
Form: double-stranded DNA, one strand shown
Sample: in vitro
Concentration: not given
Setting: 8-mer, flanks averaged, mean of 2 arrays, mostly near background
Reference: not given
Direction: higher = stronger binding
Target sequence (chain): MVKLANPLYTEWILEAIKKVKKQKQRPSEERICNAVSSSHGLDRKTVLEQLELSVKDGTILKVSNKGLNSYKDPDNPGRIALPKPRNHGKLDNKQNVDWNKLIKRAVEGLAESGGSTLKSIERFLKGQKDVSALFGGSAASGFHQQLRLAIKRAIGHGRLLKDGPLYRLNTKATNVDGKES
The E-score of `CGCCGCCA` is reported as 0.314.
The E-score of `AAGAGGAA` is reported as -0.174.
For `ACTATACT`, the E-score was 3.5e-05.
`GGCCCTCA` gave an E-score of -0.155.
`ATACGCCC` has an E-score of 0.166.
The E-score of `CGCTCGAC` is reported as 0.111.
For `GTAAGGGA`, the E-score was -0.0438.
`AGTCCGAA` has an E-score of 0.0699.
For `GAGATTCC`, the E-score was 0.0182.
`CCTTGAGA` gave an E-score of -0.155.
`ACCTGACT` gave an E-score of -0.088.
With `ATCACGCA` the E-score was 0.132.

Set 4
Target: ABI1, truncated, D143A, DHFR fusion (Arabidopsis thaliana)
Technique: DHFR PCA, deep sequencing
Sample: yeast
Setting: methotrexate growth selection, single substitutions
Together with: (+)-ABA 1.4 µM
Reference: wild-type fitted maximum
Direction: higher = stronger binding
Starting sequence: PYL1, truncated, DHFR fusion (Arabidopsis thaliana); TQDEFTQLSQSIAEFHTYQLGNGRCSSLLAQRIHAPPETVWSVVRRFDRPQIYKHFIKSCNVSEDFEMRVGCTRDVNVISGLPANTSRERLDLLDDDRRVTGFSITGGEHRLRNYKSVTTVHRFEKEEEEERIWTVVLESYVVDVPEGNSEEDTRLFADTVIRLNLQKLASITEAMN
`V137H` — result for “relative binding score”: 0.225%.
`Q51L` — result for “relative binding score”: -3.13%.
For `V62S`, “relative binding score” read 8.3%.
`R98G`: “relative binding score” 10.5%.
For `S11G`, “relative binding score” read 31.7%.
`L93Q`: “relative binding score” 38.6%.
`E174Y` — result for “relative binding score”: -1.94%.
